Published values from different studies.
Protocols differ between the studies behind these lines.
CA9: Carbonic anhydrase 9 (CA9, Homo sapiens, UniProt Q16790)
MTNR1A: Melatonin receptor type 1A (MTNR1A, Homo sapiens, UniProt P48039)
UniProt P48039, sequence (whole entry, looked up): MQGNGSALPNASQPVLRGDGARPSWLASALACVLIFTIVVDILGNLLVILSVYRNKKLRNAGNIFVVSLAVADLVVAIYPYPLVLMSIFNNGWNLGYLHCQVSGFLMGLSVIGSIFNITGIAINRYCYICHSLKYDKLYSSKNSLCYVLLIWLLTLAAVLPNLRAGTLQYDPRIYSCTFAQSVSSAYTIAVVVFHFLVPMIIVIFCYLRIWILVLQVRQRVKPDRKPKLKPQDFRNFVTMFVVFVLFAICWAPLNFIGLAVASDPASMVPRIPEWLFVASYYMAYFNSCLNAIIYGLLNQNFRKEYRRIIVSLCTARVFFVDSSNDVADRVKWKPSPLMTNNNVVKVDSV
CSNK1A1: Casein kinase I isoform alpha (CSNK1A1, Homo sapiens, UniProt P48729)
UniProt P48729, sequence (whole entry, looked up): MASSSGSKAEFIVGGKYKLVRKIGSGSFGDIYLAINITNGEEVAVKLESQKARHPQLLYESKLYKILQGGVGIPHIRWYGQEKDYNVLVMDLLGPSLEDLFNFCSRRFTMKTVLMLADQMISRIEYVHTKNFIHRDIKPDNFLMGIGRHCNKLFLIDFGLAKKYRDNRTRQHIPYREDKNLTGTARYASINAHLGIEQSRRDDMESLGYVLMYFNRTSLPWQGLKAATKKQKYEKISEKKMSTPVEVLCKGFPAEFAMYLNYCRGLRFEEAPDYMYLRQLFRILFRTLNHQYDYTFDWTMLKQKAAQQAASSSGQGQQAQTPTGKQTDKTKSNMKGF
CSNK1D: Casein kinase I isoform delta (CSNK1D, Homo sapiens, UniProt P48730)
UniProt P48730, sequence (whole entry, looked up): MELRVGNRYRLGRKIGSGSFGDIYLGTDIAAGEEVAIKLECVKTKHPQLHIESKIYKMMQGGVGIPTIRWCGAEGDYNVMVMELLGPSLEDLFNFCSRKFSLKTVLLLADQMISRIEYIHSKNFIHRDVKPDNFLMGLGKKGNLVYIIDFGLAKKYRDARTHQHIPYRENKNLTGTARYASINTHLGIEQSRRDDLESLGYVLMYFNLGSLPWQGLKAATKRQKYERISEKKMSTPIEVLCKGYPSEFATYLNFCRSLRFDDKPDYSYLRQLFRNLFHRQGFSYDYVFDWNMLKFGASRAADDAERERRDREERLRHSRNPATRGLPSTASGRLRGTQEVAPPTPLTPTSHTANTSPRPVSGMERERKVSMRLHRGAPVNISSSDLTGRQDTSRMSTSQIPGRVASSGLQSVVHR
UniProt P0DMS8, sequence (whole entry, unmodified, looked up): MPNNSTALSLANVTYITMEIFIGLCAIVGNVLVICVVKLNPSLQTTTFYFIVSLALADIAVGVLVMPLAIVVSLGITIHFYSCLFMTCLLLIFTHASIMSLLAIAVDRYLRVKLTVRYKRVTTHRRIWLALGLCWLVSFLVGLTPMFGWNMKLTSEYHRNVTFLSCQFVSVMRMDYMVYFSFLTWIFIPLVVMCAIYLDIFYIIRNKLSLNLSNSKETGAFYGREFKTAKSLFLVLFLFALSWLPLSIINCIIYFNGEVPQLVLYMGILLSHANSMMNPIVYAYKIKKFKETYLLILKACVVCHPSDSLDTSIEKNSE
UniProt Q9H2X6, sequence (whole entry, looked up): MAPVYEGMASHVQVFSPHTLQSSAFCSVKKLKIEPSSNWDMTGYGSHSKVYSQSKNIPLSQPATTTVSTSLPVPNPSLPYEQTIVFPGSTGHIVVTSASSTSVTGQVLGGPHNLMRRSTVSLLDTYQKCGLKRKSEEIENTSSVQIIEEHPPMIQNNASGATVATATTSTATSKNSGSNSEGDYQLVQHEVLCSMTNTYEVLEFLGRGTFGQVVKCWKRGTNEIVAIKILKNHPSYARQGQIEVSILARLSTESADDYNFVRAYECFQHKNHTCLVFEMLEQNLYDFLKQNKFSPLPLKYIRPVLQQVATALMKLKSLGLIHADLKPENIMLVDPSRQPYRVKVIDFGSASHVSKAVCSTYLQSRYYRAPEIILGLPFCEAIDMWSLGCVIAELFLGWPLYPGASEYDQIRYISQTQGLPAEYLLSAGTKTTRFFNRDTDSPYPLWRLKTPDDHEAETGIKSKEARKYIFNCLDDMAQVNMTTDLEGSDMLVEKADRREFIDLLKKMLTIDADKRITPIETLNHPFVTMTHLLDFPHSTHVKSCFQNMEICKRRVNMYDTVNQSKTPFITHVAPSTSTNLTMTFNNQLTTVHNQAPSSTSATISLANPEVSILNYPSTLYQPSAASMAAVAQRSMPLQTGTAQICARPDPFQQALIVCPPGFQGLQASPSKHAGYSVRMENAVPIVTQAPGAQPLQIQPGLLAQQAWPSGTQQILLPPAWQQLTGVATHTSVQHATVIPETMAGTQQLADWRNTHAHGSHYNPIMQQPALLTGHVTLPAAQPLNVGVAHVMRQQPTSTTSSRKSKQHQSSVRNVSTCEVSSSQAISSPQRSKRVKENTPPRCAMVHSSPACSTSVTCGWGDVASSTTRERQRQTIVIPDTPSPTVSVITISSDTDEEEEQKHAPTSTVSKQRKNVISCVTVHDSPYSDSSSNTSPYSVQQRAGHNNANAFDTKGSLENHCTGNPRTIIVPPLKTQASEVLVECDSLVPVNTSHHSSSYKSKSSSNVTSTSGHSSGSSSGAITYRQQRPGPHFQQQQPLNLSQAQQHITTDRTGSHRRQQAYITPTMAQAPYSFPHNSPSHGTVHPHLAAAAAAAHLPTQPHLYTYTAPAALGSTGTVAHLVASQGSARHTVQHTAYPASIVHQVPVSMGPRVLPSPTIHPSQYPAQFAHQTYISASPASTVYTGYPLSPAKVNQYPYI
UniProt Q9P289, sequence (whole entry, looked up): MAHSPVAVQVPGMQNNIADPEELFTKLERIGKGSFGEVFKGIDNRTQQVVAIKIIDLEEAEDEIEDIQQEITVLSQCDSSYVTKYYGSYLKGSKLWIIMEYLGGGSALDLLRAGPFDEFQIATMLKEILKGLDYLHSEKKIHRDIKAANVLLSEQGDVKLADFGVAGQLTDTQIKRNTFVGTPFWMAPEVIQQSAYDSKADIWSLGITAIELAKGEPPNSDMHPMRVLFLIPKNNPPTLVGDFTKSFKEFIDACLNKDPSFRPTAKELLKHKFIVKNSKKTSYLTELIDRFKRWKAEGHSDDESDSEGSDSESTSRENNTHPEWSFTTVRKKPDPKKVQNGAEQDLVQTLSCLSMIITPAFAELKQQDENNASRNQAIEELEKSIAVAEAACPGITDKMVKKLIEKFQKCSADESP
UniProt Q96GD4, sequence (whole entry, looked up): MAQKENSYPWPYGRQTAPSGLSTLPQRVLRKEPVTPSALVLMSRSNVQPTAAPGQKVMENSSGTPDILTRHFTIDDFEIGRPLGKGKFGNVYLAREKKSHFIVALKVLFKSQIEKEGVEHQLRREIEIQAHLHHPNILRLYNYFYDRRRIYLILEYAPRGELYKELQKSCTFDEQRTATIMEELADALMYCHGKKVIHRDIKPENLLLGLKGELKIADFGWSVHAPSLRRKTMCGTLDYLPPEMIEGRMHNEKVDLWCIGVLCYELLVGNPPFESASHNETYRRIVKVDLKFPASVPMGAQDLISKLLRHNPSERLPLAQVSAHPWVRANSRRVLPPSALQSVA
UniProt P09622, sequence (whole entry, unmodified, looked up): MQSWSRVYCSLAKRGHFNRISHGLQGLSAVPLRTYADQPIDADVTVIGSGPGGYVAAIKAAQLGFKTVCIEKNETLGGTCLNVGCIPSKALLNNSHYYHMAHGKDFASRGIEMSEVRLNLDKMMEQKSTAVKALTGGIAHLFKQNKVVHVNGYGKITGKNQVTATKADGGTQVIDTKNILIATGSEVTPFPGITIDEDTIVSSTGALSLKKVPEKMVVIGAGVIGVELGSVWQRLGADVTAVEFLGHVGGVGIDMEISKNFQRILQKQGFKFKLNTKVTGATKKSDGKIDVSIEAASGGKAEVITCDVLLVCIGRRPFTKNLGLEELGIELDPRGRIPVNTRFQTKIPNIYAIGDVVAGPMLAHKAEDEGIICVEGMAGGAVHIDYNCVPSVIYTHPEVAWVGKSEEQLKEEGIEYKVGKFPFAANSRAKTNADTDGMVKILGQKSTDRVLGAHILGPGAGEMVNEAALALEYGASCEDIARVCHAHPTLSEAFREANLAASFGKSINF
UniProt P42336, sequence (whole entry, looked up): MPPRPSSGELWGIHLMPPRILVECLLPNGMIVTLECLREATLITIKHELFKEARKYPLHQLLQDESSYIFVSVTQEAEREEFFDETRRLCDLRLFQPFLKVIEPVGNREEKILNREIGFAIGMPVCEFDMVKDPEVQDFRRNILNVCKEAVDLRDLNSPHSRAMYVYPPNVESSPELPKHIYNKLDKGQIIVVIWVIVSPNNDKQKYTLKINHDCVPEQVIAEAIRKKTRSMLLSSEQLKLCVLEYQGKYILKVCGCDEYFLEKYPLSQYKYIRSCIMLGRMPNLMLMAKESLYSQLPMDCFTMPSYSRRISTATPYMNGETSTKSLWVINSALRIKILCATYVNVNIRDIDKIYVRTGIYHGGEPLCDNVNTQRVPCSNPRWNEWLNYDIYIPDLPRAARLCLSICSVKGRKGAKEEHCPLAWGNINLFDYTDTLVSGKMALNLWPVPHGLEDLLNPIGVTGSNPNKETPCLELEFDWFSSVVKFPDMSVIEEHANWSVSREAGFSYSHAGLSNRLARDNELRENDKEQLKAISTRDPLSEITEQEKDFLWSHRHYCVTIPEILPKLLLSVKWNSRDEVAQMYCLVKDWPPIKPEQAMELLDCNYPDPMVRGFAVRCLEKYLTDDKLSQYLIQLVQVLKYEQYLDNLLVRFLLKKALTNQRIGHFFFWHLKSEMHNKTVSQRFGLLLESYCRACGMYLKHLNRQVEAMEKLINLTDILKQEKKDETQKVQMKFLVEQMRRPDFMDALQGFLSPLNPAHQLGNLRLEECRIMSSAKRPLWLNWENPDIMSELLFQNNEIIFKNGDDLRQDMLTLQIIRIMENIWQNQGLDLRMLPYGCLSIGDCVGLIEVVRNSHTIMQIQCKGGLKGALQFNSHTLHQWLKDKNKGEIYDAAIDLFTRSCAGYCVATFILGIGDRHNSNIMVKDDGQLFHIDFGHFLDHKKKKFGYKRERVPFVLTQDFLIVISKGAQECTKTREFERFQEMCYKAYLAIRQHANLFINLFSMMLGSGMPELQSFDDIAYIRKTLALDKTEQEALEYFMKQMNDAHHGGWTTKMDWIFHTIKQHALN

| Compound | tested on | assay | system | conditions | quantity | value |
| --- | --- | --- | --- | --- | --- | --- |
| Nc1ncnc2c1ncn2[C@@H]1O[C@H](COP(=O)(O)OP(=O)(O)OP(=O)(O)O)[C@@H](O)[C@H]1O | dnaA (Escherichia coli, UniProt P03004, E244K) | binding | – | – | Kd | 30 nM |
| CC(=O)Nc1ccc(C(=O)N2CCN(CC(=O)c3cc(C)n(-c4ccc(S(N)(=O)=O)cc4)c3C)CC2)cc1F | CA9 | enzyme activity, inhibitor | – | – | IC50 | 51.3 nM |
| COC(=O)c1cc(Cn2cc(C)sc2=O)c(C)s1 | MTNR1A | cAMP, agonist, luciferase | – | – | EC50 | 495 nM |
| CC(NCC1(c2ccc(-c3cn(C)nn3)cc2)CCOCC1)C(=O)Nc1ccc(S(N)(=O)=O)cc1 (stereo not drawn) | CA9 | enzyme activity, inhibitor | – | – | IC50 | 100 nM |
| CCN1CCc2c(sc(NC(=O)c3ccc(OC)cc3OC)c2C(N)=O)C1 | CSNK1A1 | binding, SPR | – | – | Kd | > 50000 nM |
| CCCCC(=O)Nc1ccc(-c2ccc3ncn(CCC)c(=O)c3c2)cn1 | CDK19 (Homo sapiens, UniProt Q9BWU1) | binding, competition with immobilised ligand | – | 0.5 µM | remaining binding | 77% |
| CC(NC(=O)c1ccccc1NC(=O)c1ccco1)c1ccc(S(N)(=O)=O)cc1 (stereo not drawn) | CA9 | enzyme activity, inhibitor | – | – | IC50 | 50 nM |
| OCc1cccc2ccncc12 | CSNK1D | binding, SPR | – | – | Kd | > 50000 nM |
| COc1cc(I)c2[nH]cc(CCNC(C)=O)c2c1 | MTNR1A | GTPγS binding, agonist, radiometric | – | cell membranes | EC50 | 468 nM |
| O=C(Nc1ccccc1)Nc1ccccn1 | CSNK1A1 | binding, SPR | – | – | Kd | > 50000 nM |
| Cc1cc2nc3c(=O)[nH]c(=O)nc-3n(C[C@H](O)[C@H](O)[C@H](O)COP(=O)(O)OP(=O)(O)OC[C@H]3O[C@@H](n4cnc5c(N)ncnc54)[C@H](O)[C@@H]3O)c2cc1C | DLD (Homo sapiens, UniProt P09622, K430R) | binding, SPR | – | – | Kd | 1610 nM |
| COc1cc(-c2cncc3c2CN(C)Cc2cc(N4CCNCC4)ccc2-3)cc(OC)c1OC | NLK (Homo sapiens, UniProt Q9UBE8) | enzyme activity, inhibitor | – | 1 µM | remaining activity | 94% |
| CCc1ccc(C2C(C#N)C(=N)SC(=N)C2C#N)cc1 (stereo not drawn) | CSNK1D | binding, SPR | – | – | Kd | > 50000 nM |
| O=C1Nc2ccccc2C1=Nc1ccccc1I | PIK3CA (Homo sapiens, UniProt P42336) | enzyme activity, inhibitor, ADP detection | – | – | IC50 | 211 nM |
| CN(C)C(=O)c1ccc(NC(=O)c2cc(S(N)(=O)=O)ccc2N2CCOCC2)cc1 | CA9 | enzyme activity, inhibitor | – | – | IC50 | 84 nM |
| COc1cc(Br)c(Cn2ccn3c(=O)cc(C)nc23)cc1OC | MTNR1A | cAMP, agonist, luciferase | – | – | EC50 | 153 nM |
| COc1cccc(-c2n[nH]c(SCc3ccccn3)n2)c1OC | – | – | male Sprague-Dawley rat, plasma | oral, 30 mg/kg, 8 h, single dose | concentration | 263 ng/mL |
| Cc1ccc(S(N)(=O)=O)cc1C(=O)Nc1ccc(NC(=O)NCc2ccco2)cc1 | CA9 | enzyme activity, inhibitor | – | – | IC50 | 97 nM |
| Nc1ccn([C@@H]2O[C@H](CO)[C@@H](O)C2(F)F)c(=O)n1 | HEK293 | cell growth or viability, MTT | – | 0.15625 µg/mL, 48 h | viability | 90.5% |
| NS(=O)(=O)c1ccc(C(=O)N2CCc3sccc3C2c2ccc(Cl)cc2)cc1[N+](=O)[O-] (stereo not drawn) | CA9 | enzyme activity, inhibitor | – | – | IC50 | 46 nM |
| CC(C)=CCNc1ncnc2c1ncn2[C@@H]1O[C@H](CO)[C@@H](O)[C@H]1O | ADORA3 (Homo sapiens, UniProt P0DMS8, L264N) | G protein activation, agonist | – | – | EC50 | 1600 nM |
| Cc1ccc(N(O)N=Nc2ccc(S(=O)(=O)Nc3onc(C)c3C)cc2)cc1 | – | DPPH scavenging, absorbance | – | 240 µg/mL | inhibition | 31% |
| Cc1cc(N2CCCC2)ccc1NC(=O)COC(=O)c1cc(S(N)(=O)=O)ccc1O | CA9 | enzyme activity, inhibitor | – | – | IC50 | 746 nM |

| Compound | tested on | assay | system | conditions | quantity | value |
| --- | --- | --- | --- | --- | --- | --- |
| COc1ccc(CN(C)C(=O)c2ccnc(OC(F)F)c2)cc1 | MTNR1A | cAMP, agonist, luciferase | – | – | EC50 | 9.73 nM |
| NS(=O)(=O)c1ccc(C(=O)Nc2ccc(Cl)cc2NC(=O)c2ccco2)cc1Cl | CA9 | enzyme activity, inhibitor | – | – | IC50 | 282 nM |
| CNc1ncc2c(/C=C/C(=O)N3CCC(OC)CC3)nn(Cc3cccc(C(F)(F)F)c3)c2n1 | STK26 (Homo sapiens, UniProt Q9P289) | enzyme activity, inhibitor, radiometric | – | 1 µM | remaining activity | 90% |
| Cc1cnc(-c2ccc(-c3ccc(NC(=O)Nc4c(F)cc(F)cc4F)cc3F)c3c2C(=O)NC3)[nH]1 | STK10 (Homo sapiens, UniProt O94804) | binding, competition with immobilised ligand | – | – | Kd | 0.1 nM |
| O=c1nc(N2CCN(CC3CCCCC3)CC2)sc2c([N+](=O)[O-])cc(C(F)(F)F)cc12 | – | – | CD-1 mouse, lung | oral, 100 mg/kg, 2 h | concentration | 644 ng/mL |
| N#C[C@@]12C[C@@H]1[C@@H](n1cnc3c(N[C@@H](C4CCC4)C4CC4)nc(I)nc31)[C@H](O)[C@@H]2O | ADORA1 (Homo sapiens, UniProt P30542) | ligand displacement, radioligand | – | – | Ki | > 10000 nM |
| N#Cc1ccccc1C#CCO | CSNK1A1 | binding, SPR | – | – | Kd | > 50000 nM |
| O=C(Nc1ccc(Oc2nnc(-c3ccc(Cl)cc3)c3ccccc23)cc1)c1ccccc1 | HepG2 | cell growth or viability, MTT | – | 5 µM, 24 h | viability | 2.97% |
| C1=C/COCc2cc(ccc2OCCN2CCCC2)Nc2nccc(n2)-c2cccc(c2)COC/1 | CLK4 (Homo sapiens, UniProt Q9HAZ1) | binding | – | 0.1 µM | remaining binding | 14% |
| c1ccc(-c2nnc(NCc3ccccn3)o2)cc1 | CSNK1A1 | binding, SPR | – | – | Kd | > 50000 nM |
| Cc1cc([C@@H](C)Nc2ccccc2C(=O)O)c2nc(N3CCC(F)(F)CC3)c(C#N)c(=O)n2c1 | Aurora kinase B (AURKB, Homo sapiens, UniProt Q96GD4) | binding, competition with immobilised ligand | – | 1 µM | remaining binding | 0% |
| COc1ccc2c(c1)N(Cc1cc(=O)c(O)co1)CCO2 | MTNR1A | cAMP, agonist, luciferase | – | – | EC50 | 1.2 nM |
| Cc1cc(Oc2ncccc2CN2CCN(c3ccc(Br)cc3)CC2)ccc1-c1c(C)c(=O)[nH]c(=O)n1C | ADRA1B (Homo sapiens, UniProt P35368) | ligand displacement, radioligand | – | – | Ki | 3030 nM |
| COc1ccc(-c2oc3ncnc(NCCCN4CCOCC4)c3c2-c2ccc(OC)cc2)cc1 | CSNK1A1 | binding, SPR | – | – | Kd | > 50000 nM |
| COc1cccc2c1CCN(C(=O)c1nc[nH]n1)C2 | MTNR1A | cAMP, agonist, luciferase | – | – | EC50 | 29.4 nM |
| CC(=NNC(=O)c1ccncc1)c1ccc(Nc2nnc(-c3ccc(Cl)cc3)c3ccccc23)cc1 | HepG2 | cell growth or viability, MTT | – | 10 µM, 24 h | viability | 5.36% |
| CC(=O)c1ccc(CSc2nnc(C3CC3)[nH]2)cc1 | MTNR1A | cAMP, agonist, luciferase | – | – | EC50 | 51.4 nM |
| c1ccc(Nc2nc3c(s2)Cc2ccccc2-3)cc1 | CSNK1A1 | binding, SPR | – | – | Kd | > 50000 nM |
| COC(=O)c1cc(Cn2nc(Cl)c(OC)cc2=O)c(C)s1 | MTNR1A | cAMP, agonist, luciferase | – | – | EC50 | 25.6 nM |
| C=CC(=O)N1CCC(COCC(=O)N2CCN(c3nc(-c4cnc(N)nc4C(F)F)nc(N4CCOC[C@@H]4C)n3)CC2)CC1 | HIPK2 (Homo sapiens, UniProt Q9H2X6) | binding, competition with immobilised ligand | – | 1 µM | remaining binding | 75% |
| COC(=O)c1coc(CSc2nnc(C3CC3)[nH]2)c1 | MTNR1A | cAMP, agonist, luciferase | – | – | EC50 | 1.51 nM |
| CN(C)c1ncnc2c1ncn2[C@@H]1O[C@H](CO)[C@@H](O)[C@H]1O | ADORA3 (Homo sapiens, UniProt P0DMS8, I253Q/V169F) | G protein activation, agonist | – | – | EC50 | 21000 nM |

Excerpt of the above:
| Compound | tested on | assay | system | conditions | quantity | value |
| --- | --- | --- | --- | --- | --- | --- |
| C1=C/COCc2cc(ccc2OCCN2CCCC2)Nc2nccc(n2)-c2cccc(c2)COC/1 | CLK4 (Homo sapiens, UniProt Q9HAZ1) | binding | – | 0.1 µM | remaining binding | 14% |
| COc1cc(-c2cncc3c2CN(C)Cc2cc(N4CCNCC4)ccc2-3)cc(OC)c1OC | NLK (Homo sapiens, UniProt Q9UBE8) | enzyme activity, inhibitor | – | 1 µM | remaining activity | 94% |
| c1ccc(Nc2nc3c(s2)Cc2ccccc2-3)cc1 | CSNK1A1 | binding, SPR | – | – | Kd | > 50000 nM |
